# Results collected from several papers.
# ± gives the spread as reported.
# EIF4E2: EIF4E2 52-234 (Homo sapiens, UniProt O60573-1)
# CDC48A: CDC48A 1-463 (Arabidopsis thaliana, UniProt P54609)
# Chain of UniProt P54609 (whole entry, looked up): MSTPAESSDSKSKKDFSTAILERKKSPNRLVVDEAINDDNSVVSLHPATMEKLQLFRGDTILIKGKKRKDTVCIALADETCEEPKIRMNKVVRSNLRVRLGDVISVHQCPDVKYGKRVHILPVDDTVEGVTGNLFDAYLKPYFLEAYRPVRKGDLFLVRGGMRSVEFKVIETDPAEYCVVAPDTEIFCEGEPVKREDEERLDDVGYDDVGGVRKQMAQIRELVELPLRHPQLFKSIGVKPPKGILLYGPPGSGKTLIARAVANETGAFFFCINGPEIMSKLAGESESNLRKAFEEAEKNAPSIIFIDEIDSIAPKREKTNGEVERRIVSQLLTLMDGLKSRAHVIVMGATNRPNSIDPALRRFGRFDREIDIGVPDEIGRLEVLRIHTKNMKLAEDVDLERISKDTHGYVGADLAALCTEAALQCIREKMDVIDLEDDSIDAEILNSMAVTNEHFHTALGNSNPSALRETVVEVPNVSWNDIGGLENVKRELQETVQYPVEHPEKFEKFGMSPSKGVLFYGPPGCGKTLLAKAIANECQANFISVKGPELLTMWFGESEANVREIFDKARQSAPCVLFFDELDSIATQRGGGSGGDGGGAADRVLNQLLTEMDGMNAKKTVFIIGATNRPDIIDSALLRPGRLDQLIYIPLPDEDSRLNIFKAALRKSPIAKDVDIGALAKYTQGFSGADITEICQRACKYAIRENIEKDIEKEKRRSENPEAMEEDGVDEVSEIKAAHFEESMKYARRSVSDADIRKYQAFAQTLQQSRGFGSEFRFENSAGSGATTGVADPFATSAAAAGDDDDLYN
# T1: ATRX ADD domain 167-289 K251R/F284Y (Homo sapiens); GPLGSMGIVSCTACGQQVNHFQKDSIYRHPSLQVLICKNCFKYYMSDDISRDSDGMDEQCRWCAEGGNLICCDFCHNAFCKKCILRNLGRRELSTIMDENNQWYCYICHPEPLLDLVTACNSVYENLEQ
# B1: HCK 78-138 (Homo sapiens, UniProt P08631); chain SEDIIVVALYDYEAIHHEDLSFQKGDQMVVLEESGEWWKARSLATRKEGYIPSNYVARVDS
# B2: mxt 577-640 (Drosophila melanogaster, UniProt Q9VR35); sequence looked up; chain SRVSYDIEHLLYYSMSPHSWTLPTDWQKMQETAPSILRNKDLQDESQRFDGDKYLASIKTAAKR
# B3: DNMT3B 206-355 K276A (Homo sapiens, UniProt Q9UBC3); sequence looked up; chain EADSGDGDSSEYQDGKEFGIGDLVWGKIKGFSWWPAMVVSWKATSKRQAMSGMRWVQWFGDGKFSEVSADALVALGLFSQHFNLATFNKLVSYRKAMYHALEKARVRAGKTFPSSPGDSLEDQLKPMLEWAHGGFKPTGIEGLKPNNTQP
# B4: DTNA 458-564 (Homo sapiens, UniProt Q9Y4J8-1); sequence looked up; chain SAPDISFTIDANKQQRQLIAELENKNREILQEIQRLRLEHEQASQPTPEKAQQNPTLLAELRLLRQRKDELEQRMSALQESRRELMVQLEGLMKLLKTQGAGSPRSS
# B5: GIGYF1 33-103 (Homo sapiens, UniProt O75420); chain KYKLADYRYGREEMLALYVKENKVPEELQDKEFAAVLQDEPLQPLALEPLTEEEQRNFSLSVNSVAVLRLM
# B6: rcsF 45-134 (Escherichia coli, UniProt P69411); chain RATPVRIYTNAEELVGKPFRDLGEVSGDSCQASNQDSPPSIPTARKRMQINASKMKANAVLLHSCEVTSGTPGCYRQAVCIGSALNITAK
# B7: UBE3A 1-64 (Homo sapiens, UniProt Q05086-2); sequence looked up; chain MKRAAAKHLIERYYHQLTEGCGNEACTNEFCASCPTFLRMDNNAAAIKALELYKINAKLCDPHP
# B8: PUX7 171-468 (Arabidopsis thaliana, UniProt Q94JZ8); chain LASLYRPPFHLMFQGSFEQAKTTSSSQDKWLLVNLQSTTEFSSHMLNRDTWANDAVSQTIKANFIFWQVYDDTTEGRKVCTYYKLESIPVVLVIDPTTGQRMRMWTGMVDPENLLEDLVPFMDGGPREHFASLSKKRPRGSFSLTPHSKPKEDVAKDEEEEELQRALAASLEDNNMKESSDDQSTIIPEEVAVEAVTSAVLPTFPPLPEEPKGGDRSLQCRVGIRLPNGQRLQRNFLKTDTIQLLWSFCYSQLEESERKKPLKLTQAIPGESKTLEYESNLTLEQSGVANSMISATWE
# B9: PUX5 301-421 M393A/F395A (Arabidopsis thaliana, UniProt Q7Y175); chain KNPFQGVGRTLGASGSGSSSAPQASSAPMNVAPAPSRGLVVDPAAPTTSIQLRLADGTRLVSRFNNHHTVRDVRGFIDASRPGGSKEYQLLTAGAPPKQLTELDQTIEQAGIANAVVIQKF
# B10: SPP1 (Saccharomyces cerevisiae, UniProt Q03012); chain MSLPQWCPPHSTLKRNPTTGEDVYCICKRPDYGELMVGCDGCDDWFHFTCLHIPEQFKDLVFSFYCPYCQAGITGKNKDAIINGEGSLPKTLWKRKCRISDCYKPCLQDSKYCSEEHGREFVNDIWSRLKTDEDRAVVKKMVEQTGHIDKFKKFGQLDFIDNNIVVKTDDEKEIFDQIVVRDMTLKTLEDDLQEVQEISLPLFKKKLELLEVYLGWLDNVYTEMRKLDDDAASHVECGKEDSKGTKRKKKKNSSRSRARKNICGYCSTYERIPCSVEEFVRDFGSNEEATKIHEVCTKWKCNRHLDWVSTNQEQYLQQIDSLESMQERLQHLIQARKKQLNIQYYEEILRRGL
# Chain of UniProt P27986 (whole entry, looked up): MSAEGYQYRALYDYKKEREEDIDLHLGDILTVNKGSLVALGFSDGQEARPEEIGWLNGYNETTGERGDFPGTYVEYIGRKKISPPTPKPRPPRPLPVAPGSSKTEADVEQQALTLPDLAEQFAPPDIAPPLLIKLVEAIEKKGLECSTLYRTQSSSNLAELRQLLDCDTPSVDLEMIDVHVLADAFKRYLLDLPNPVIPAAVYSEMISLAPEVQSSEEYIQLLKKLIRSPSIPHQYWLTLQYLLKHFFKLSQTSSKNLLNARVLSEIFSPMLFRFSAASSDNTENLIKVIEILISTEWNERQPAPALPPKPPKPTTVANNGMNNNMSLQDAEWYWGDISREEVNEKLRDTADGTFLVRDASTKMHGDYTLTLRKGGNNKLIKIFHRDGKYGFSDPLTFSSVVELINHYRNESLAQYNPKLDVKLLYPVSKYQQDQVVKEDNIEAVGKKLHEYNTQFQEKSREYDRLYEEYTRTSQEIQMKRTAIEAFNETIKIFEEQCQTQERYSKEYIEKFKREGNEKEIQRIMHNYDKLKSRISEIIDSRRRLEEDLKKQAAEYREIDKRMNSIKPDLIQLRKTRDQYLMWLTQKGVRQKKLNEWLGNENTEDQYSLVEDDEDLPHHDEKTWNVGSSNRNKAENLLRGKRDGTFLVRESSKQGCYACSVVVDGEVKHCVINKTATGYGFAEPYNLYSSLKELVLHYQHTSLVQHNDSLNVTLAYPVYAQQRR
# Chain of UniProt P21651 (whole entry, looked up): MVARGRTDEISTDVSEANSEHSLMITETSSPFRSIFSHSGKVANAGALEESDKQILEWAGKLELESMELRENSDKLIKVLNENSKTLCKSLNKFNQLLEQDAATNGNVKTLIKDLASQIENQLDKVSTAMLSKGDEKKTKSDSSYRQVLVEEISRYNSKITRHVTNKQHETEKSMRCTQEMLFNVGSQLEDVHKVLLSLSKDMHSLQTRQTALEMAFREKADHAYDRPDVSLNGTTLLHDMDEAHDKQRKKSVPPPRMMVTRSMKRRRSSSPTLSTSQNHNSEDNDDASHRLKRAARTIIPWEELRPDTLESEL
# Chain of UniProt P55036 (whole entry, looked up): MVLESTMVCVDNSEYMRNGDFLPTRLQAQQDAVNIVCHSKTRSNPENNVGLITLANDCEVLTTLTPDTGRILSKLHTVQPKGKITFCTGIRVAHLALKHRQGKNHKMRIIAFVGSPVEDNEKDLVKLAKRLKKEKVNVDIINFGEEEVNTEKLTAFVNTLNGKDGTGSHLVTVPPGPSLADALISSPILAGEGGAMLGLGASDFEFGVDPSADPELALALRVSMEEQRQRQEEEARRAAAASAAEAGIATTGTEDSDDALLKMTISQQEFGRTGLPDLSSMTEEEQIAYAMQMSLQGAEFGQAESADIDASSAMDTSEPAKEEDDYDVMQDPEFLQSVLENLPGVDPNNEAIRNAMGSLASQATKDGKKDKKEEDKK
Substance,tested on,assay,system,setting,scale,endpoint,result
B1 (HCK 78-138),"PIK3R1 80-333 (Homo sapiens, UniProt P27986)",ITC,,,,molecule per partner,1.1 ± 0.1
GLFQWIYRA,Jurkat T cells expressing 1G4 TCR,"NFAT-eGFP reporter, fluorescence microscopy",peptide,"concentration not given, HLA-A*02:01 NY-ESO system",,reporter activation,0.0024%
GGYMDMSKDESVDYVPML (PDGFRB 738-755; doubly phosphorylated),"PIK3R1 80-724 (Homo sapiens, UniProt P27986)",ITC,peptide,,,molecule per partner,1
GSGAGKESYV,human MAGI1-2/6 PDZ construct (MBP fusion),automated holdup,"peptide, crude extract","concentration not given, corrected by standard peak, unit not given","baseline: biotin control resin, higher = stronger binding",binding intensity,0.23
"RTKQTARKSTGGKAP (H3C1; N-acetyl, benzoyl-lysine K9, C-terminal amide)","MLLT3 2-138 F28S (Homo sapiens, UniProt P42568)",ITC,peptide,,,molecule per partner,0.825 ± 0.00711
ARTKQTARKSTGGKA (H3C1 1-15; K9me1),"T1, ATRX ADD domain 167-289 K251R/F284Y (Homo sapiens)",ITC,peptide,,,molecule per partner,0.97
B2 (mxt 577-640),"eIF4E1 (Drosophila melanogaster, UniProt P48598-2)",NMR diffusion,,298 K,,molecule per partner,1
"EEQWAREIGAQLRRMADDLNAQYER (BBC3 BH3 peptide 68-92 (Homo sapiens); N-acetyl, C-terminal amide)",BCL2L1 fragment (Homo sapiens),ITC,peptide,,,molecule per partner,1.01
B3 (DNMT3B 206-355 K276A),"DNMT3B 417-555 (Homo sapiens, UniProt Q9UBC3)",ITC,,,,molecule per partner,1.01
B4 (DTNA 458-564),"DMD 3365-3685 (Homo sapiens, UniProt P11532-1)",ITC,,,,molecule per partner,0.97
B5 (GIGYF1 33-103),EIF4E2,ITC,peptide,,,molecule per partner,1 ± 0.02
PUX5 fragment F304A/L311A (Arabidopsis thaliana),CDC48A,ITC,,25 °C,,molecule per partner,1.1 ± 0.1
B6 (rcsF 45-134),"IgaA periplasmic domain 361-650, selenomethionine (Escherichia coli)",crystal structure,,,,molecule per partner,1
B7 (UBE3A 1-64),"PSMD4 305-377 (Homo sapiens, UniProt P55036)",SEC-MALS,,,,molecule per partner,1
ARTKQTARKSTGGKA (H3C1 1-15; K4me3/K9me3),"T1, ATRX ADD domain 167-289 K251R/F284Y (Homo sapiens)",ITC,peptide,,,molecule per partner,1.06
B8 (PUX7 171-468),CDC48A,ITC,,10 °C,,molecule per partner,1.2 ± 0.1
"TRIIYDRKFLMECRNSPVTKTPPRDLPTIPGVTS (EIF4EBP1 50-83 (Homo sapiens, UniProt Q13541))",EIF4E2,ITC,peptide,,,molecule per partner,1.01 ± 0.01
QGRWDHETIV,human MAGI1-3/6 PDZ construct (MBP fusion),automated holdup,"peptide, purified PDZ protein","concentration not given, unit not given","baseline: biotin control resin, higher = stronger binding",binding intensity,0.0381
csm5 (Thermococcus onnurineus),Csm1/Csm4 heterodimer (Thermococcus onnurineus),cryo-EM,,,,molecule per partner,1
B9 (PUX5 301-421 M393A/F395A),CDC48A,ITC,,25 °C,,molecule per partner,1.1 ± 0.1
ARTKQTARKSTGGKA (H3C1 1-15; K9me2),"T1, ATRX ADD domain 167-289 K251R/F284Y (Homo sapiens)",ITC,peptide,,,molecule per partner,1
GLGQWISGA,Jurkat T cells expressing 1G4 TCR,"NFAT-eGFP reporter, fluorescence microscopy",peptide,"concentration not given, HLA-A*02:01 NY-ESO system",,reporter activation,0.0044%
B10 (SPP1),"REC107 (Saccharomyces cerevisiae, UniProt P21651)",SEC-MALS,,,,molecule per partner,2 per Mer2 tetramer
"PUX5 (Arabidopsis thaliana, UniProt Q7Y175)",CDC48A,ITC,,25 °C,,molecule per partner,0.5 ± 0.1
